{"data": "Measurements of several laboratories", "target": "Casein kinase I isoform gamma-2 (CSNK1G2, Homo sapiens, UniProt P78368)", "note": "Compare with care: the assays were run in different laboratories."}
{"Compound": "Cc1cccc(O[C@H]2CCC[C@@H](C(C)CNCc3ccncc3)C2)c1 (relative stereo)", "observed": "kinase activity", "method": "kinome panel screening", "concentration": "1 µM", "measurement": "inhibition", "value": "-6%"}
{"Compound": "C=CC(=O)Nc1cccc(-c2cnc3[nH]cc(C(=O)NC(C)(C)C)c3n2)c1", "observed": "enzyme activity", "mode": "inhibitor", "concentration": "0.1 µM", "measurement": "inhibition", "value": "4%"}
{"Compound": "O=C(Cc1ccc(OCc2ccccc2)cc1)NC1(C(=O)O)CCN(C(=O)c2ccc(-c3cccc(Cl)c3)cc2)CC1", "observed": "enzyme activity", "mode": "inhibitor", "concentration": "10 µM", "measurement": "activity vs control", "value": "105%"}
{"Compound": "CNS(=O)(=O)Nc1nccc(Cc2c(C)c3ccc(Oc4ncccc4F)cc3oc2=O)c1F", "observed": "binding", "method": "competition with immobilised ligand", "concentration": "10 µM", "measurement": "remaining binding", "value": "84%"}
{"Compound": "CN1CCN(Cc2ccc(-c3ccc(CO[C@H]4CCC[C@@H]4NC(=O)c4cc(-c5cnn(C)c5)cnc4N)cc3)cc2)CC1", "observed": "enzyme activity", "mode": "inhibitor", "concentration": "0.1 µM", "measurement": "inhibition", "value": "9%"}
{"Compound": "COc1cc(-n2cc3cc(F)cc(C(N)=O)c3n2)cc(Cl)c1C1CC(O)(CCO)Cc2ccccc21 (stereo not shown)", "observed": "enzyme activity", "mode": "inhibitor", "concentration": "10 µM", "measurement": "inhibition", "value": "2.02%"}
{"Compound": "CN1CCN(Cc2ccc(NC(=O)c3cccc(C#Cc4cnc(N)c5ncccc45)c3)cc2C(F)(F)F)CC1", "observed": "cell-free assay", "method": "competition with immobilised ligand", "concentration": "50 nM", "measurement": "remaining binding", "value": "92%"}
{"Compound": "CCn1cc(C(=O)O)c(=O)c2c(N)c(F)c(NC3CCCCC3)cc21", "observed": "kinase activity", "concentration": "0.1 µM", "added": "ATP at Km", "measurement": "inhibition", "value": "3.3%"}
{"Compound": "C=CC(=O)N1Cc2nc(-c3cc(-c4cc(Cl)cnc4Cl)c(F)cc3F)n(-c3ccncn3)c2C1", "observed": "cell-free assay", "mode": "inhibitor", "concentration": "1 µM", "measurement": "inhibition", "value": "7.9%"}
{"Compound": "NC(=O)C[C@H]1CCc2sc3ncnc(O[C@H]4CC[C@H](N5CCOCC5)CC4)c3c21", "observed": "enzyme activity", "mode": "inhibitor", "concentration": "10 µM", "measurement": "inhibition", "value": "3%"}
{"Compound": "CNC(=O)C1CCN(c2cc(C)c(F)cc2NC(=O)c2ccc(-c3cc(O)ccc3C)c(C)c2)CC1", "observed": "binding", "method": "competition with immobilised ligand", "concentration": "1 µM", "measurement": "remaining binding", "value": "67%"}
{"Compound": "C=C1CCCCCCCCCC(CO)C1=O (stereo not shown)", "observed": "cell-free assay", "concentration": "10 µM", "measurement": "remaining signal", "value": "100%"}
{"Compound": "COc1cc(Nc2nccc(-c3cnn4nc(OC)ccc34)n2)cc(C(F)(F)F)c1", "observed": "binding", "method": "competition with immobilised ligand", "concentration": "1 µM", "measurement": "remaining binding", "value": "97%"}
{"note": "Excerpt of the above:"}
{"Compound": "CCn1cc(C(=O)O)c(=O)c2c(N)c(F)c(NC3CCCCC3)cc21", "observed": "kinase activity", "concentration": "0.1 µM", "added": "ATP at Km", "measurement": "inhibition", "value": "3.3%"}
{"Compound": "C=C1CCCCCCCCCC(CO)C1=O (stereo not shown)", "observed": "cell-free assay", "concentration": "10 µM", "measurement": "remaining signal", "value": "100%"}
